Assay results of several laboratories.
Numbered parts are unrelated; each lists some results of a single study. Substitutions count along the parent as printed.

Series 1
Molecule: PhoQ, residues 284 288 289 292 302 303 GLASVI
Technique: Sort-seq
Measured: YFP reporter
Matrix: E. coli
Setting: PhoQ-PhoP variant library
Added: 10 µM Mg2+
Baseline: high Mg2+ state
Reading: higher = stronger signaling
target | fold induction
PhoP, residues 12 14 15 18 19 LFHKL (Escherichia coli, UniProt P23836) | 2.06
PhoP, residues 12 14 15 18 19 QQAYL (Escherichia coli, UniProt P23836) | 15.5
PhoP, residues 12 14 15 18 19 GMGLL (Escherichia coli, UniProt P23836) | 21.2

Series 2
Target: Sal-like protein 4, full length isoform B (SALL4, Homo sapiens, UniProt Q9UJQ4-2, residues 1-616)
Technique: universal PBM
Form: double-stranded DNA, one strand shown
Matrix: in vitro
Tested at: not given
Setting: 8-mer, flanks averaged, mean of replicates
Reading: higher = stronger binding
Construct (chain): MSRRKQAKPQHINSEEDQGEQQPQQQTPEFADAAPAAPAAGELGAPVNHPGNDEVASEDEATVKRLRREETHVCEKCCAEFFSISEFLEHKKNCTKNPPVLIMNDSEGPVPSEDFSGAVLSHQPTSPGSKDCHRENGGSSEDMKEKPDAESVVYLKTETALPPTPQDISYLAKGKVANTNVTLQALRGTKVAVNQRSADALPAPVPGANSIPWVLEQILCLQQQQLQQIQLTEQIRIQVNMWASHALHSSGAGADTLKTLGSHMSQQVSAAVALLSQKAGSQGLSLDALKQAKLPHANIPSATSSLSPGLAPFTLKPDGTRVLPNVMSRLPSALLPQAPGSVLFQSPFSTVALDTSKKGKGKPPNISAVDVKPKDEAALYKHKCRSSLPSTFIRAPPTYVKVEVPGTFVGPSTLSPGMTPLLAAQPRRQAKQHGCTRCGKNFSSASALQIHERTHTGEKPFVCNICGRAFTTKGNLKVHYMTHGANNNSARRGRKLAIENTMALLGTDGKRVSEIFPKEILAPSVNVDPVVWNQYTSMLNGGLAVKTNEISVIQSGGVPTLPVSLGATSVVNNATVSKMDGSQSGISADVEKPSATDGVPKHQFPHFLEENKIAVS
Strand | E-score
CAGGCGGG | -0.333
GTCCTGTA | 0.00082
CAAGGGAG | -0.0882
GTTCGCAA | 0.101
CGAGGATA | -0.0636
ACCAATGA | 0.128
GTTACCAA | -0.113
CAAAGACG | -0.0599
AATTTTTG | 0.381
GGCGATGA | -0.134
ACCCATAG | -0.124
CCCCCCAG | -0.383
AAATGGAG | 0.0781
ACCGCTAA | 0.116
TGTTTAAA | 0.171
ATTTGCCG | -0.0761
TTAGCGAA | 0.0626
ACGTCCCT | -0.0915
ACCTCCCC | -0.244

Series 3
Target: CCNA2, cyclin fold, Cln2 fusion (human)
Technique: yeast growth competition, sequencing
Matrix: yeast
Setting: strong parent motif
Baseline: not given
Reading: higher = stronger binding
Starting sequence: RBL1 docking peptide (human); GSAKRRLFGEDPP
Change | normalised enrichment score
GSAKRRLFGEDFP [P12F] | 5.57
GSAKRRLAGEDPP [F8A] | 0.384
KSAKRRLFGEDPP [G1K] | 6.46
GSAKCRLFGEDPP [R5C] | 1.82
GSAKRRNFGEDPP [L7N] | 1.22
GSTKRRLFGEDPP [A3T] | 4.66
GSAKRRLFGFDPP [E10F] | 5.27
GSNKRRLFGEDPP [A3N] | 0.694
GPAKRRLFGEDPP [S2P] | 4.92
FSAKRRLFGEDPP [G1F] | 6.33
GSAKRRLFGEDGP [P12G] | 5.25
GSAKYRLFGEDPP [R5Y] | 0.459
GSAKRRLFGKDPP [E10K] | 5.23
GSAKRRLFGERPP [D11R] | 4.91
GSAKRRLKGEDPP [F8K] | 1.14
GSAKRRLNGEDPP [F8N] | 1.17
GSAKRFLFGEDPP [R6F] | 1.11
GSAKRQLFGEDPP [R6Q] | 4.28
GSAKTRLFGEDPP [R5T] | 0.539
GWAKRRLFGEDPP [S2W] | 4.17
GSAKRTLFGEDPP [R6T] | 2.28
GSAKRRWFGEDPP [L7W] | 1.21
GSAKRRLFNEDPP [G9N] | 7.22
GSAKRRLFEEDPP [G9E] | 6.13
GSAKRRLFGCDPP [E10C] | 5.73

Series 4
Target: Histone acetyltransferase KAT6A, winged helix 2, GST fusion (KAT6A, Homo sapiens, UniProt Q92794, residues 85-181)
Technique: protein binding microarray
Form: double-stranded DNA, one strand shown
Matrix: in vitro
Tested at: not given
Setting: 8-mer, flanks averaged, mean of 2 arrays, mostly near background
Baseline: not given
Reading: higher = stronger binding
Target sequence (chain): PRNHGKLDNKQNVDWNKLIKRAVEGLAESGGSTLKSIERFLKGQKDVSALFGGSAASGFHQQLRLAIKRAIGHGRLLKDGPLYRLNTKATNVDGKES
Strand | E-score
TAGGTAGA | -0.0675
CGGTTCGC | 0.199
ATAGATAT | -0.151
ACACATCG | -0.123
AACGGAAC | -0.0176
ACGAGTAG | -0.0635
ACTTATGG | -0.148
CAGACCGG | 0.0483
AGGGAAAT | -0.0458
CGACACTA | -0.00472
AGGGTCAG | -0.0215
CTATTGCA | -0.06
CATAATCA | -0.0618
GGTCCTAC | -0.00172
AATTCCGG | 0.114
CTGACCAA | 0.188
CAGATCTG | 0.11
GTTCGACA | 0.196
AGATTGAA | -0.112
CGCAGACA | 0.141
CGGCGCAG | 0.0987

Series 5
Target: Fragile X messenger ribonucleoprotein 1, C-terminal low-complexity region (Fmr1, Mus musculus, UniProt P35922)
Technique: RNA Bind-n-Seq
Form: RNA
Matrix: in vitro
Tested at: 200 nM
Setting: whole 134-nt RNA, ends assumed
Added: 150 mM KCl
Baseline: input library
Reading: higher = stronger binding
Strand | log2 enrichment
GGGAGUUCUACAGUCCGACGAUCCCUGUGCUACACAUCGUAUGUACCGAAUCGGUUUUUUUGGGUUUUUUUGGGGUUUUUUUGGAAAGUAUUAUGUUACGCCGUUCGGAUCUGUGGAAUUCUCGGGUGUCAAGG | -0.856
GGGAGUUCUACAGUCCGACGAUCAAGUCCUGUGCUACACAUCGUAUGUACCGAAUCGGAAAAAAAGGUUUGGAAAAAGGAAAGUAUUAUGUUACGCCGUUCGGAUCUGCACUUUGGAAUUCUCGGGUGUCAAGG | -1.28
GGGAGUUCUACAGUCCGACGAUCUCCCAGCCGAGGACGUCGGAUGUCAUCGUCCUUGCUGCUUUGCCACCCCAUUCCCGUCAAUAAAGUGGUUUGAACCCAACCCUGGUGUCGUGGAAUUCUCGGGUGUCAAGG | -1.37
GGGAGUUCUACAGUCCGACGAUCUGGCCCUGGUGGCAUGCGGGGAGGAAGAGGUGGCCUAAUGGAUCGUGGUGGUCCCGGUGGAAUGUUCAGAGGUGGCCGUGGUGGAGACAGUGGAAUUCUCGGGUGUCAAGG | 0.414
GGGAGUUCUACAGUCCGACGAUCUGGGAGGUGGAUUUUGUUUAUUUUUUUAGCUCAUUUCCAGGGGUGGGAAUUUUUUUUUAAUAUGUGCCAUGAAUAAAGUUGUUUUUGAAAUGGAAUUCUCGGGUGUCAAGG | 0.202
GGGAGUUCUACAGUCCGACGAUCGUCCUGUGCUACACAUCGUAUGUACCGAAUCGGCCCCCCGGCCCCCCGGGCCCCCCGGAAAGUAUUAUGUUACGCCGUUCGGAUCUGCACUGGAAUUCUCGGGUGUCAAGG | 0.109
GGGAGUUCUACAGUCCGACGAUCUGGCCCUGGUGGCAUGCGGGGAGGAAGAGGUGGCCUCAUGGAUCGUGGUGGUCCCGGUGGAAUGUUCAGAGGUGGCCGUGGUGGAGACCGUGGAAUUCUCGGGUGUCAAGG | -0.0919
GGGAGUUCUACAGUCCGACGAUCUAACUUUAGAGGAGGAUCUGAUGGAUAUGGCAGUGGACGUGGAUUUGGGGAUGGCUAUAAUGGGUAUGGAGCAGGACCUGGAGGUGGCAAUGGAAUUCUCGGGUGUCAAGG | 0.111
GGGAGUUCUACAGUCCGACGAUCCUGUGCUACACAUCGUAUGUACCGAAUCGGGGUUUGGGGAAAAAAAGGGGUUUUUUUGGGGAAAGUAUUAUGUUACGCCGUUCGGAUCUGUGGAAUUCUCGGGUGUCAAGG | 0.0181
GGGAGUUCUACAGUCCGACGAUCACCAUGCAGGUGGGCAUCUUUAGGAAGUGGGGCAAGGGGGGGAUAGGGAGGGGGGUAACACUUUGGGAACAGGUGGUCCCAGGUCGUUUCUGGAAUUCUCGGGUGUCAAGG | 0.819
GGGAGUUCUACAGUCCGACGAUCCACAGACAACACGCACCCACACAGACACAGAGGGAAGGGGUUGGGAUGGGGACAGGGUGCACAGCAGGGCGGGGUAGGAAACCAGCCCCUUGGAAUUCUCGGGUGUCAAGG | 1.09
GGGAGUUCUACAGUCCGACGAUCCUGUGCUACACAUCGUAUGUACCGAAUCGGGGAAAAAAAGGGGAAAAAAAGGGAAAAAAAGGAAAGUAUUAUGUUACGCCGUUCGGAUCUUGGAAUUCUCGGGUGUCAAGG | -0.308
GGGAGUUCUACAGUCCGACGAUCGCCUGGCGCUGGCCAACAAUAGCACCCUCACCAUUGGCACCAUCGAUGAGAUCCAGAAGCUGCACAUUCGCACAGUUCCCCUCUAUGAGUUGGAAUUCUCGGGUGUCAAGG | 0.723
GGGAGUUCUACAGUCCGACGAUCCAAGUCCUGUGCUACACAUCGUAUGUACCGAAUCGGGAAAAAGGGUUUGGGUGGGAAAGUAUUAUGUUACGCCGUUCGGAUCUGCACUUCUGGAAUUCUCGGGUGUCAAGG | 1.25

Series 6
Target: ABI1, truncated, D143A, DHFR fusion (Arabidopsis thaliana)
Technique: DHFR PCA, deep sequencing
Matrix: yeast
Setting: methotrexate growth selection, single substitutions
Added: (+)-ABA 1.4 µM
Baseline: wild-type fitted maximum
Reading: higher = stronger binding
Starting sequence: PYL1, truncated, DHFR fusion (Arabidopsis thaliana); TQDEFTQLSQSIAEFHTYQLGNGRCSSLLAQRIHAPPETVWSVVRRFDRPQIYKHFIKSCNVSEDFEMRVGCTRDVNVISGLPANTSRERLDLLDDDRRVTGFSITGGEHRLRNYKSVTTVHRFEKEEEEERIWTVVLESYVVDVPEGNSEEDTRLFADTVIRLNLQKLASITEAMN
Change | relative binding score
E129L | 47.8%
L20F | 23.8%
E130Q | 58.9%
V118C | 39.9%
M68N | 24.7%
S63P | 66.1%
P36F | 9.9%
D159G | 2.03%
L156D | 5.14%
H55R | 83.8%
S11K | 21.8%
P83N | 14.5%
A84P | 5.15%
T120R | -3.16%
T86E | 6.7%
Q2W | 54.9%
T135G | 4.78%
P36S | 57.2%
Y53L | -1.58%
E139Y | 37.8%
L91M | 20.5%

Series 7
Target: CREB3L1, bZIP domain (human)
Technique: DHFR protein complementation
Matrix: yeast
Setting: single substitutions, most at no-binding floor
Baseline: wild-type JUN-FOS pair
Reading: higher = stronger binding
Starting sequence: JUN, bZIP domain (human); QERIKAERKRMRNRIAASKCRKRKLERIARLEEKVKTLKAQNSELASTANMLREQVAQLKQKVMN; partner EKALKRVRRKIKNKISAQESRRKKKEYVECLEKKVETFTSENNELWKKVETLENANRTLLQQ
Change | binding fitness [natural log]
K39E | -1.4
S43M | -1.34
L45Q | -1.42
A57R | -1.4
N42S | -1.46
S43A | -1.24
L45H | -1.54
A49M | -1.43
I28N | -1.21
S43W | -1.48
A29E | -1.34
L52W | -1.47
S47K | -1.49
N42I | -1.53
A46D | -1.41
Q55K | -1.52
T37A | -1.26
M51N | -1.21
K34G | -1.4
N42R | -1.34
E32L | -1.43
A40G | -1.45
E33C | -1.43
S47F | -1.39
L52E | -1.44
